{"data": "Results pooled from the literature", "note": "Every numbered part comes from another study and shows a few of its results, in no order."}
{"data": "Sample 1", "target": "Histone acetyltransferase KAT6A, winged helix 1, GST fusion (KAT6A, Homo sapiens, UniProt Q92794, residues 1-85)", "method": "protein binding microarray", "molecule type": "double-stranded DNA, one strand shown", "medium": "in vitro", "concentration": "not given", "notes": "8-mer, flanks averaged, mean of 2 arrays, mostly near background", "reference": "not given", "direction": "higher = stronger binding", "Construct (chain)": "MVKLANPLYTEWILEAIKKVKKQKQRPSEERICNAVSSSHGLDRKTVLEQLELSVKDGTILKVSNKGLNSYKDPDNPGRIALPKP"}
{"Oligonucleotide": "CAGGAAGA", "E-score": 0.00379}
{"Oligonucleotide": "ACGACCAA", "E-score": -0.251}
{"Oligonucleotide": "GGAACCAC", "E-score": 0.0346}
{"Oligonucleotide": "GGTTCGAA", "E-score": -0.11}
{"Oligonucleotide": "CTAACGTA", "E-score": 0.0252}
{"Oligonucleotide": "AATTATGC", "E-score": 0.0354}
{"Oligonucleotide": "CTTATTTC", "E-score": -0.22}
{"Oligonucleotide": "AGGCATTG", "E-score": -0.181}
{"Oligonucleotide": "AAGTCTGC", "E-score": -0.163}
{"Oligonucleotide": "AGGCGAAC", "E-score": 0.119}
{"Oligonucleotide": "CCAACCAC", "E-score": -0.212}
{"Oligonucleotide": "CATGCCAA", "E-score": -0.279}
{"Oligonucleotide": "ACATATAC", "E-score": -0.149}
{"Oligonucleotide": "ACAAGGGT", "E-score": -0.108}
{"Oligonucleotide": "GGCTCATA", "E-score": 0.0086}
{"Oligonucleotide": "CTCGTCGA", "E-score": -0.174}
{"Oligonucleotide": "CGAGAGCA", "E-score": -0.0831}
{"Oligonucleotide": "ACGGTCTG", "E-score": -0.002}
{"Oligonucleotide": "CGCTCGAA", "E-score": -0.0138}
{"Oligonucleotide": "AGAGACAC", "E-score": -0.107}
{"Oligonucleotide": "CATAATTC", "E-score": -0.00411}
{"Oligonucleotide": "ATTCCAAG", "E-score": -0.272}
{"Oligonucleotide": "ACGATAGC", "E-score": -0.0187}
{"data": "Sample 2", "target": "Phosphate system positive regulatory protein PHO4, full length, GST-tagged (PHO4, Saccharomyces cerevisiae, UniProt P07270, residues 1-312)", "method": "competition protein-binding microarray", "molecule type": "double-stranded DNA, one strand shown", "medium": "in vitro", "concentration": "2 µM", "notes": "whole 60-bp probe, lowest competitor level", "with": "Cbf1 competitor, 0.05 µM", "direction": "higher = stronger binding", "all sequences stand within": "… GTCTTGATTCGCTTGACGCTGCTG", "Construct (chain)": "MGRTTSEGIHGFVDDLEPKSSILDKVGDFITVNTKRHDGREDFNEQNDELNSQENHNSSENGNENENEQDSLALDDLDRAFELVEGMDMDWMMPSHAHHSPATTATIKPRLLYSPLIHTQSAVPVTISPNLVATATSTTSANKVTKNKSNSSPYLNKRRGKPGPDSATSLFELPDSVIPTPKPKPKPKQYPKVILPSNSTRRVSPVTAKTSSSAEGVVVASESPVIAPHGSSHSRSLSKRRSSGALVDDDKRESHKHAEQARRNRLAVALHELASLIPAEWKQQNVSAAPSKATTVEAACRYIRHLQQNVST"}
{"Oligonucleotide": "AAAGCGGTAATTTGCTATGTGGGTGCAGATATCTAT", "fluorescence intensity [a.u.]": 4210}
{"Oligonucleotide": "TTATGTACAACAGCCCTCGTGCTTTCACCGTTGTAG", "fluorescence intensity [a.u.]": 11800}
{"Oligonucleotide": "ATCTTGTGAAACTCCGTCGTGCTTTGGATAGAGCCT", "fluorescence intensity [a.u.]": 8260}
{"Oligonucleotide": "TAACTACCGCCCTAGTTCGTGCTTTCATTTTTTTGT", "fluorescence intensity [a.u.]": 6360}
{"Oligonucleotide": "TCCGATGGAAACGAGCATGTGGCCGATAGATCTAAA", "fluorescence intensity [a.u.]": 10600}
{"Oligonucleotide": "TTTCTCACAAGACTGCTCGTGGTGAGGCCGCTTTGG", "fluorescence intensity [a.u.]": 8030}
{"Oligonucleotide": "CGTCCTAGCGATTGACAAGTGGGTGCCATGAGGAAG", "fluorescence intensity [a.u.]": 6580}
{"Oligonucleotide": "CTAACGAAGGTTTGTCGAGTGGGTGACAAGCCAAGT", "fluorescence intensity [a.u.]": 3300}
{"Oligonucleotide": "TGCGAAGGCACCTGGGTCGTGCCAGTATTTGGCGCC", "fluorescence intensity [a.u.]": 7640}
{"Oligonucleotide": "CCGCCGACACATATACACGTGTATATGTATGCCTAT", "fluorescence intensity [a.u.]": 15900}
{"Oligonucleotide": "GTCCACTCCCGCACTCACGTGTTCCCGCCTTGCCCT", "fluorescence intensity [a.u.]": 13800}
{"Oligonucleotide": "CATACCCAACCTTGTCACCTGACTTAAGATATTTGT", "fluorescence intensity [a.u.]": 4050}
{"Oligonucleotide": "CTAACGAAGGTTTGTCTCGTGGGTGACAAGCCAAGT", "fluorescence intensity [a.u.]": 9110}
{"Oligonucleotide": "CTTCTGTAAATTTTTCACGTGTGATGACGCGCCCCG", "fluorescence intensity [a.u.]": 11700}
{"Oligonucleotide": "CGTCCTAGTGATTGTCACCGGACTTCCATGAGGAAG", "fluorescence intensity [a.u.]": 4350}
{"Oligonucleotide": "TAGAGGCAAAGTAGTCACCTGACTGCGCAAGCCCAT", "fluorescence intensity [a.u.]": 4060}
{"Oligonucleotide": "CAAGATAGGGAGAGCCACGTGATAGACTGGGGAGAG", "fluorescence intensity [a.u.]": 17700}
{"Oligonucleotide": "GGTAACGAGATGGATCTCGTGAAGGATGATATCAAT", "fluorescence intensity [a.u.]": 4690}
{"Oligonucleotide": "CTAACGAAGGTTTGTCGGGTGGGTGACAAGCCAAGT", "fluorescence intensity [a.u.]": 3870}
{"data": "Sample 3", "target": "Interferon regulatory factor 5, full length, phosphomimetic (IRF5, Homo sapiens, UniProt Q13568-2, residues 1-514, K96S/S451D/S453D/S456D/S462D)", "method": "protein-binding microarray", "molecule type": "double-stranded DNA, one strand shown", "medium": "in vitro", "concentration": "250 nM", "notes": "60-bp whole probe", "with": "salmon DNA 0.4 mg/ml", "reference": "random background probes", "direction": "higher = stronger binding", "all sequences stand within": "GCCTAGCAC … GTCTTGATTCGCTTGACGCTGCTG"}
{"Oligonucleotide": "GACGGTTTCGGGTTTTGGGACGTGCTA", "log fluorescence [z-score]": 6.91}
{"Oligonucleotide": "TTAGATATCTGTATCGATTAGTGCTAG", "log fluorescence [z-score]": 5.45}
{"Oligonucleotide": "TTAGATTTCCTTCTCCTTTAGTGCTAG", "log fluorescence [z-score]": 0.906}
{"Oligonucleotide": "GTGTTTTTCTCCTATTTAAGAGTGCTA", "log fluorescence [z-score]": 1.99}
{"Oligonucleotide": "GACGGTTTCGACTTTCGAGACGTGCTA", "log fluorescence [z-score]": 7.87}
{"Oligonucleotide": "GACGGACTGCGTCTCGGGACGTGCTAG", "log fluorescence [z-score]": -0.793}
{"Oligonucleotide": "TTAGGACTAGGTTTCGGTTAGTGCTAG", "log fluorescence [z-score]": 8.73}
{"Oligonucleotide": "GACGGTTTCGGTTCCGGGAGGTGCTAG", "log fluorescence [z-score]": 9.78}
{"Oligonucleotide": "TCATATATACTATATGCAACTGTGCTA", "log fluorescence [z-score]": 0.543}
{"Oligonucleotide": "GACGGACTGGACAATCGGGACGTGCTA", "log fluorescence [z-score]": -0.428}
{"Oligonucleotide": "CTCTACCTCGTCATAGTAACGTGCTAG", "log fluorescence [z-score]": -0.00974}
{"Oligonucleotide": "AACGATCTCAGTTTCGAGACGTGCTAG", "log fluorescence [z-score]": 5.03}
{"Oligonucleotide": "TTAGGACTGGGACTGGGTCAGTGCTAG", "log fluorescence [z-score]": -0.44}
{"Oligonucleotide": "TTTGATTTCAGTTTCGATTAGTGCTAG", "log fluorescence [z-score]": 10.4}
{"Oligonucleotide": "TTAGGTCTCCTTAGCCTTTAGTGCTAG", "log fluorescence [z-score]": -0.322}
{"Oligonucleotide": "GAGGGTTTCGACTATCGGGACGTGCTA", "log fluorescence [z-score]": 5.75}
{"data": "Sample 4", "target": "RNA binding protein fox-1 homolog 2, RRM domain, GST-SBP tag (RBFOX2, Homo sapiens, UniProt O43251-10, residues 100-194)", "method": "RNA Bind-n-Seq", "molecule type": "RNA", "medium": "in vitro", "concentration": "365 nM", "notes": "natural RNA segment, single round, ends assumed", "reference": "no-protein control", "direction": "higher = stronger binding", "all sequences stand within": "GGGAGUUCUACAGUCCGACGAUC … UGGAAUUCUCGGGUGCCAA", "Construct (chain)": "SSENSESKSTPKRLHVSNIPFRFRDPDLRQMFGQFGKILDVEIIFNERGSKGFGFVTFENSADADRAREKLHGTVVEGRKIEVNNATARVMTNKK"}
{"Oligonucleotide": "CUGAGACAAAAAGGAAACAUAAGAGCUUUUUCACUCUAAAAAUCUUGGCAAUAAUGUCAACACCAGAAAGCCUCCUCUGGAGAAUCUUACAGAGUGAUUGUAGUUUAAUA", "RBNS enrichment (R)": 0.249}
{"Oligonucleotide": "AGCCAGUUCUCCAAGUUCUUAACCUGUGGCACUGAAAGGAAUGUUGAGUUACCUCUUCAUGUUUUAGACAGCAAACCCUAUCCAUUAAAGUACUUGUUAGAACACUGAAA", "RBNS enrichment (R)": 0.304}
{"Oligonucleotide": "CUGUAGAAUUGUGGGCUGUAGCGUUACUCUGAUUUUCUGUCUAGUAUCAGAGAAUGCUGGUAGCUUAAAAUUUUUAUUUUAGGACUUGUACUCUGAAUUUUCAGGAACCG", "RBNS enrichment (R)": 0.746}
{"Oligonucleotide": "AUCUUGCUCGGGCCCUAGCUGUUGGGGUUCUCAUGGGUUGCACUGACCAUACUGCUUACGUCUUAGCCAUUCCGUCCUGCUCCCCAGCUCACUCUCUGAAGCACACAUCA", "RBNS enrichment (R)": 0.671}
{"Oligonucleotide": "GGUUGAGAAUCACUGUGGGCGUCCAUUCUUAUUCAACUAAAUCUCCACAGGUUUUUUGAGCUGGUGUGGAUUAGUUUAACUCUUGUAUUCAACCAUUAGUGCUACCACCU", "RBNS enrichment (R)": 0.48}
{"Oligonucleotide": "CCCCUGUGUGCAUUAGGAACCCUUCUCUCCUCUGAGAAAGCUCAGAGGGAGCACUGCCUCACAAACUGUGAGACUGCGUUUUUUAUACUUGGAAGUGGUGAAUUAUUUUA", "RBNS enrichment (R)": 0.557}
{"Oligonucleotide": "AAGGCGAGGGCUACAGGCUGAGAGAGCUUGAGCUCAGAGGCUUUUAUGAACCGUUUCCUCUGAGGGCCACCCUUGAUCUCUAGCAGAACAGCAAGCAGAACACCGUGCAU", "RBNS enrichment (R)": 0.65}
{"Oligonucleotide": "ACGAACCAGAGACAAAAUUACUAAGUAUAAAUUAGUCAAGUUUAUCAGUCUAAAAAACGAAGGGAUGUGCAACUGCAGCUCUUUAAGAAGUUUUUUUUUUUUAGCUUCUA", "RBNS enrichment (R)": 0.644}
{"note": "Excerpt of the above (sample 3):"}
{"Oligonucleotide": "TTAGATTTCCTTCTCCTTTAGTGCTAG", "log fluorescence [z-score]": 0.906}
{"Oligonucleotide": "TTAGGACTAGGTTTCGGTTAGTGCTAG", "log fluorescence [z-score]": 8.73}
{"Oligonucleotide": "GTGTTTTTCTCCTATTTAAGAGTGCTA", "log fluorescence [z-score]": 1.99}
{"Oligonucleotide": "AACGATCTCAGTTTCGAGACGTGCTAG", "log fluorescence [z-score]": 5.03}
{"Oligonucleotide": "TTTGATTTCAGTTTCGATTAGTGCTAG", "log fluorescence [z-score]": 10.4}
{"Oligonucleotide": "TTAGGTCTCCTTAGCCTTTAGTGCTAG", "log fluorescence [z-score]": -0.322}
{"Oligonucleotide": "TTAGATATCTGTATCGATTAGTGCTAG", "log fluorescence [z-score]": 5.45}
{"Oligonucleotide": "CTCTACCTCGTCATAGTAACGTGCTAG", "log fluorescence [z-score]": -0.00974}
{"Oligonucleotide": "GACGGACTGGACAATCGGGACGTGCTA", "log fluorescence [z-score]": -0.428}
